Results pooled from the literature.
Protocols differ between the studies behind these lines.
Target: Phosphatidylinositol 4-phosphate 3-kinase C2 domain-containing subunit beta (PIK3C2B, Homo sapiens, UniProt O00750)

COc1cc(Nc2nccc(-c3cnn4nc(OC)ccc34)n2)cc(C(F)(F)F)c1
remaining binding (binding, competition with immobilised ligand; 1 µM): 78%

CN1CCN(Cc2ccc(NC(=O)c3cccc(C#Cc4cnc(N)c5ncccc45)c3)cc2C(F)(F)F)CC1
remaining binding (cell-free assay, competition with immobilised ligand; 0.5 µM): 100%

CS(=O)(=O)Nc1cccc(-c2csc3cnc(Nc4ccc(N5CCN(CCCCCOc6cccc7c6C(=O)N(C6CCC(=O)NC6=O)C7=O)CC5)cc4)nc23)c1 (centres unmarked)
inhibition (probe labelling, inhibitor, KiNativ chemoproteomics; MOLT-4; 1 µM): 4.06%

Nc1ncc2c(n1)-c1c([nH]c3ccc(C4=CCOCC4)cc13)CCC2
remaining binding (binding, competition with immobilised ligand; 1 µM): 79%

C=C1CCCCCCCCCC(CO)C1=O (centres unmarked)
remaining signal (cell-free assay; 10 µM): 70%

Cc1ccc(-c2c(/C=C(\C#N)C(=O)NC(C)C)n(CCCO)c3ncnc(N)c23)cc1
remaining binding (cell-free assay, competition with immobilised ligand; 1 µM): 96%

COc1c(Cl)cccc1Nc1c(-c2ccncc2C#C[C@@]2(C)CCCN2C(=O)/C=C/CN(C)C)[nH]c2c1C(=O)NCC2
remaining binding (cell-free assay, competition with immobilised ligand; 3 µM): 50%

C=CC(=O)N1Cc2nc(-c3cc(-c4cc(Cl)cnc4Cl)c(F)cc3F)n(-c3ccncn3)c2C1
inhibition (cell-free assay, inhibitor; 1 µM): -14.4%

CN1CCN(Cc2ccc(-c3ccc(CO[C@H]4CCC[C@@H]4NC(=O)c4cc(-c5cnn(C)c5)cnc4N)cc3)cc2)CC1
inhibition (enzyme activity, inhibitor; 0.1 µM): -5%

C=CC(=O)Nc1cc(-c2nn(C3CCN(CCNC(=O)[C@H](C)CCC45CC6CC(CC(C6)C4)C5)CC3)c3ncnc(N)c23)ccc1Oc1ccccc1
inhibition (inhibitor, KiNativ profiling; biochemical; 2 µM): 13.4%

CNC(=O)C1CCN(c2cc(C)c(F)cc2NC(=O)c2ccc(-c3cc(O)ccc3C)c(C)c2)CC1
remaining binding (binding, competition with immobilised ligand; 1 µM): 77%

Cc1cc(NC(=O)[C@H](O)c2cc(F)cc(F)c2)ccc1-c1cnc(N)c(C(=O)NC(C)C)c1
remaining binding (binding, competition with immobilised ligand; 10 µM): 7.3%

COc1ccc(NC(=O)Nc2ccc3c(c2)C(=O)N(C(C)CO)CC(C)C(CN(C)Cc2ccc4c(c2)OCO4)O3)cc1 (centres unmarked)
remaining binding (binding, competition with immobilised ligand; 10 µM): 96%

CC(=O)c1cnc(N)nc1N1CC[C@H]1c1nn2ccc(Cl)c2c(=O)n1-c1ccccc1
target engagement (KiNativ; Jurkat cell lysate; 1 µM, 0.25 h): 23.9%

A few entries again:
CC(=O)c1cnc(N)nc1N1CC[C@H]1c1nn2ccc(Cl)c2c(=O)n1-c1ccccc1
target engagement (KiNativ; Jurkat cell lysate; 1 µM, 0.25 h): 23.9%

C=CC(=O)N1Cc2nc(-c3cc(-c4cc(Cl)cnc4Cl)c(F)cc3F)n(-c3ccncn3)c2C1
inhibition (cell-free assay, inhibitor; 1 µM): -14.4%
